Experimental data gathered from unrelated publications.
Every numbered part comes from another study and shows a few of its results, in no order. Substitutions count along the parent as printed.

Block 1
Target: CCND3, cyclin fold, Cln2 fusion (human)
Technique: yeast growth competition, sequencing
Matrix: yeast
Setting: weak parent motif
Reference: not given
Reading: higher = stronger binding
Endpoint: normalised enrichment score
Starting sequence: SAMHD1 docking peptide (human); ASKSRVQLFKDDP
ASKSRVQLPKDDP [F9P]: 0.334
ASFSRVQLFKDDP [K3F]: 0.00288
ASKSRVQQFKDDP [L8Q]: 0.00338
AGKSRVQLFKDDP [S2G]: 0.0192
ASSSRVQLFKDDP [K3S]: 0.158
ASCSRVQLFKDDP [K3C]: 0.251
ARKSRVQLFKDDP [S2R]: -0.0572
AIKSRVQLFKDDP [S2I]: 0.47
APKSRVQLFKDDP [S2P]: -0.114
ASKSRVQLQKDDP [F9Q]: -0.00428
ASKSRVQRFKDDP [L8R]: 0.232
ASLSRVQLFKDDP [K3L]: 0.148
ASKSRVQLFKMDP [D11M]: 0.232
AQKSRVQLFKDDP [S2Q]: -0.0191
ASKSRVQLGKDDP [F9G]: 0.0131
ASKSRVQNFKDDP [L8N]: 0.216
ASKSRVQFFKDDP [L8F]: -0.00701
ASKSRWQLFKDDP [V6W]: -0.304
ASKSDVQLFKDDP [R5D]: -0.0257
ASKSRVQLEKDDP [F9E]: -0.0336
AHKSRVQLFKDDP [S2H]: 0.383
AMKSRVQLFKDDP [S2M]: 0.106
ASNSRVQLFKDDP [K3N]: -0.32
ASKSRVELFKDDP [Q7E]: -0.0598
ASKSRVILFKDDP [Q7I]: -0.0503

Block 2
Target: RING finger protein unkempt homolog, zinc fingers 1-6, GST-SBP tag (UNK, Homo sapiens, UniProt Q9C0B0, residues 30-357)
UniProt Q9C0B0, sequence (30-357, looked up): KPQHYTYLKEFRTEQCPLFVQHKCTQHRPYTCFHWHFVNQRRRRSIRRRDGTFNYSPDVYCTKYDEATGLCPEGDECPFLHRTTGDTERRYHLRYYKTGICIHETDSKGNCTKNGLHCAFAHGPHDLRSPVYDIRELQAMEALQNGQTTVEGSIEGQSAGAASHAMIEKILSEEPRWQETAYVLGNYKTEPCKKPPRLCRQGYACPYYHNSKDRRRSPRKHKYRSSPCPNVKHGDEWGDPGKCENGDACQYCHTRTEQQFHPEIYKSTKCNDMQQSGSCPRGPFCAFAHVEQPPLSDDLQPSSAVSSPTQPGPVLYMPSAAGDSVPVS
Technique: RNA Bind-n-Seq
Form: RNA
Matrix: in vitro
Tested at: not given
Setting: RNA with constant flanks, ends assumed
Reference: input RNA pool
Reading: higher = stronger binding
Endpoint: bound/input enrichment
Shared flanks, not repeated: GGGAGUUCUACAGUCCGACGAUC … CAACAGAGGAUUGAGCAUCA
UUGGCCAGUCAGUAUUCUGCUAAUGAAAUGUAUGCAGAAGCACUGAACACAUACCAAGUUACCGUGAAAAACAAGAUGUUUAGCAAUGCAGGAAGACUGAAAGUGAAUAUGGGAAAUAUU: 0.149 ratio
UCAAUAACCUUUUCAGAUGAAAAUGAUGAUCAGGAUUUUGAAUUAUGGGAUGAUGCCGGAUUAAACAUUCCCAAACCCCCAGACUUGUUACAACUUUACCGAGACUUUGGAAAUCAUCAA: 0.139 ratio
UGGCAAAUUUGUAUCAGUAAUUUGAAAAUGAGAUAUUAGGAAAAACCAAUUCUUCUUAAAUUCCGUUCAUCUUUCUUUAAAAGAACAUUAAAUGUAACCAUUUUGUCAGAUCCAUGUAUU: 0.372 ratio
AAUGAACACUUCAAUGUGUUCCUCACUGCUAAGGACCUGAAUGCCUACAAGAAGCAAGGGACCGCAUUGCUGAGCAGAGUGGGUGAGUCAGUCAAGCACGUCACCGGAGGCUAUAAGCUG: 0.109 ratio
AGUAAAGUUGACAAUAAAACCAGAGUUUCUAUCUAUCUGAUUUUUUUUUUUUUUUAAUUGCCGUUGCACUUGUAGAUCAGAUUAUCAGAGGCAGGAGCACUCCCGGAUUGGAGCAUACUU: 1.41 ratio
UGUGUCCACAUAUUUGUCCAUUUGUCUGUGUACAAUCAGUCCUGGUGAUCACAUGGACUAUACCGUCCACAUCUCUGUAUCUUGCUGGAAAGAACCCAAAGGAGCAUCGUAUGGACACUU: 0.249 ratio
UCCCUCGCCUGUGGUAAACCAACACAGCGGGUCCUCACAAAAGAACCCAAGUCCAAGGAGACCGAAAGUGGCCACAUAUUUACAGUUAAUGAUCAAUUCACAUCUAAACUACACAGAGUC: 0.153 ratio
CCUCCUUUUGCAACUGGACUGCCUCACUAUGGACAUAUACUUGCGGGUACAAUUAAAGAUACCGUUACAAGAUAUGCUCACCAGAGUGGGUUUCAUGUUGACAGAAGAUUUGGAUGGGAU: 0.102 ratio

Block 3
Target: Histone acetyltransferase KAT6A, both winged helices, GST fusion (KAT6A, Homo sapiens, UniProt Q92794, residues 1-181)
Technique: protein binding microarray
Form: double-stranded DNA, one strand shown
Matrix: in vitro
Tested at: not given
Setting: 8-mer, flanks averaged, mean of 2 arrays, mostly near background
Reference: not given
Reading: higher = stronger binding
Endpoint: E-score
Residues (chain): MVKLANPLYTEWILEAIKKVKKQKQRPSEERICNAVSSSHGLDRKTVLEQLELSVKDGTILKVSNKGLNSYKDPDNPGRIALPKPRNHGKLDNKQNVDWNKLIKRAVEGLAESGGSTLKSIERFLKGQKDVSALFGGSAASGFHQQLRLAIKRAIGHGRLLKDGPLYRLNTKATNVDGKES
AATCCGCA: 0.221
ATAGGACC: -0.0569
GCGAACAA: 0.128
CTGGAGGA: -0.14
GCCGATAA: 0.13
GGTACTAC: -0.0126
GGTAGGAA: -0.0915
ATGAGGGA: -0.172
GCAAAAGA: 0.0155
CTGGCTGC: -0.0649
ACCAAGCT: -0.297
ATAGCCCG: 0.145
AGTGAGCG: 0.0407
CTTATTTC: -0.153
GGTTGCAC: -0.023
CAGAGCGG: 0.148
CCCCACTA: -0.222
GCGATAGA: 0.0757
CGGATCCG: 0.293
CGCTATAC: 0.191
ACTAATGA: -0.104
CGTTCACC: 0.156
ACTTGAGC: -0.143
AGGTATCA: -0.196

Block 4
Target: Ras GTPase-activating protein-binding protein 1, full length (G3BP1, Homo sapiens, UniProt Q13283)
UniProt Q13283, sequence (whole entry, looked up): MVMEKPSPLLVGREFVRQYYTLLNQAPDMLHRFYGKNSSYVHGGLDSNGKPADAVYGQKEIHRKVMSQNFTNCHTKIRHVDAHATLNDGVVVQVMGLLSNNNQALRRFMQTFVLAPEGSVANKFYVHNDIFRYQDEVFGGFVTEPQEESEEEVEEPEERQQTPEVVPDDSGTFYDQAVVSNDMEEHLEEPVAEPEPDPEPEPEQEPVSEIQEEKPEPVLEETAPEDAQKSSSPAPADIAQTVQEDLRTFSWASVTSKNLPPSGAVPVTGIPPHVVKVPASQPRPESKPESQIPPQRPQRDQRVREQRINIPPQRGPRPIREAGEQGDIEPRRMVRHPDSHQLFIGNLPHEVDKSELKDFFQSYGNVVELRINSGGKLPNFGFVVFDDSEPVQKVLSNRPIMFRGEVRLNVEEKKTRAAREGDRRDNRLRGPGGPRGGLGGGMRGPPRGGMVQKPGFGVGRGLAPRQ
Technique: RNA Bind-n-Seq
Form: RNA
Matrix: in vitro
Tested at: 200 nM
Setting: whole 134-nt RNA, ends assumed
With: 150 mM LiCl
Reference: input library
Reading: higher = stronger binding
Endpoint: log2 enrichment
All molecules: 7-deaza-guanosine replaces G
Shared flanks, not repeated: GGGAGUUCUACAGUCCGACGAUC … UGGAAUUCUCGGGUGUCAAGG
UAACUUUAGAGGAGGAUCUGAUGGAUAUGGCAGUGGACGUGGAUUUGGGGAUGGCUAGAAUGGGUAUGGAGGAGGACCUGGAGGUGGCAA: 0.406
CUCAAGUCCUGUGCUACACAUCGUAUGUACCGAAUCGGGGUUGGGUUGGUUGGGAAAGUAUUAUGUUACGCCGUUCGGAUCUGCACUUCC: 0.376
AAGUCCUGUGCUACACAUCGUAUGUACCGAAUCGGUUUUUGGUUUUUGGUUUUUGGGAAAGUAUUAUGUUACGCCGUUCGGAUCUGCACU: -0.499
UGGCCCUGGUGGCAUGCGGGGAGGAAGAGGUGGCCUCAUGGAUCGUGGUGGUCCCGGUGGAAUGUUCAGAGGUGGCCGGGGUGGAGACAG: -0.244
UCAAGUCCUGUGCUACACAUCGUAUGUACCGAAUCGGUUUGGGUUUGGGGUUUGGAAAGUAUUAUGUUACGCCGUUCGGAUCUGCACUUC: -0.799
ACCAUGCAGGUGGGCAUCUUUGGGAAGUGGGGCAAGGGGGGGAUAGGGAGGGGGGUAACACUUUGGGAACAGGUGGUCCCAGGCCGUUUC: 0.248
CCUGUGCUACACAUCGUAUGUACCGAAUCGGGGCCCCCCGGGGCCCCCCGGCCCCCCGGGAAAGUAUUAUGUUACGCCGUUCGGAUCUGC: -1.56
CUGUGCUACACAUCGUAUGUACCGAAUCGGGCCCCCCCGGGCCCCCCCGGGCCCCCCCGGGAAAGUAUUAUGUUACGCCGUUCGGAUCUG: -0.206

Block 5
Target: Sal-like protein 4, full length isoform B (SALL4, Homo sapiens, UniProt Q9UJQ4-2, residues 1-616)
Technique: universal PBM
Form: double-stranded DNA, one strand shown
Matrix: in vitro
Tested at: not given
Setting: 8-mer, flanks averaged, mean of replicates
Reading: higher = stronger binding
Endpoint: E-score
Residues (chain): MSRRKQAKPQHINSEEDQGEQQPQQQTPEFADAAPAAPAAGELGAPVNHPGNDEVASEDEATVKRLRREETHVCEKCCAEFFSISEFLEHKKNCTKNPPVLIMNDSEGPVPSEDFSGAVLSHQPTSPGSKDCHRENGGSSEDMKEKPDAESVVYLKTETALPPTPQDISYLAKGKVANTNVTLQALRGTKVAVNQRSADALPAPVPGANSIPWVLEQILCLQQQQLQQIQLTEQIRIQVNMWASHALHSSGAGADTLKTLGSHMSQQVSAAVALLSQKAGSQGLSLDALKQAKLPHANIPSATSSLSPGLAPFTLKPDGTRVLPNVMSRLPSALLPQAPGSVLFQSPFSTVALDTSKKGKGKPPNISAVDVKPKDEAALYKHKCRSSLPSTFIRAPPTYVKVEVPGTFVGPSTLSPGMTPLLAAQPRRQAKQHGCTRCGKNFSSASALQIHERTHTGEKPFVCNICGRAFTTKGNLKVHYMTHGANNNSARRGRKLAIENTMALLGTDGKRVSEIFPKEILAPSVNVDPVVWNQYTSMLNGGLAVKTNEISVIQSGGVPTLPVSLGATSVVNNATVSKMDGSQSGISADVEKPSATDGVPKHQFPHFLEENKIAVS
CCTCCCAC: -0.119
AACGTCAT: 0.295
GCTCCTAC: -0.0714
CTTTGCAC: 0.0129
GCGCGGAA: -0.386
AAAGTTCA: 0.164
TAACGATA: 0.226
TATAGCGA: 0.157
CGTACCTA: -0.11
ATCGAGAG: 0.0458
ATACTAGC: 0.0448
GGCCGCAC: -0.226
TCTTGCAA: 0.058
TATTTTAA: 0.396
GGCTCTCA: -0.132
GAACGATA: 0.154
CACAGTAC: 0.0443
ATCATGAA: 0.13
ACATCAAC: 0.0413
AAAGTATC: 0.196
TGCGGAAA: 0.127

Some of these lines once more (block 2):
UUGGCCAGUCAGUAUUCUGCUAAUGAAAUGUAUGCAGAAGCACUGAACACAUACCAAGUUACCGUGAAAAACAAGAUGUUUAGCAAUGCAGGAAGACUGAAAGUGAAUAUGGGAAAUAUU: 0.149 ratio
UCAAUAACCUUUUCAGAUGAAAAUGAUGAUCAGGAUUUUGAAUUAUGGGAUGAUGCCGGAUUAAACAUUCCCAAACCCCCAGACUUGUUACAACUUUACCGAGACUUUGGAAAUCAUCAA: 0.139 ratio
UGGCAAAUUUGUAUCAGUAAUUUGAAAAUGAGAUAUUAGGAAAAACCAAUUCUUCUUAAAUUCCGUUCAUCUUUCUUUAAAAGAACAUUAAAUGUAACCAUUUUGUCAGAUCCAUGUAUU: 0.372 ratio
AAUGAACACUUCAAUGUGUUCCUCACUGCUAAGGACCUGAAUGCCUACAAGAAGCAAGGGACCGCAUUGCUGAGCAGAGUGGGUGAGUCAGUCAAGCACGUCACCGGAGGCUAUAAGCUG: 0.109 ratio
AGUAAAGUUGACAAUAAAACCAGAGUUUCUAUCUAUCUGAUUUUUUUUUUUUUUUAAUUGCCGUUGCACUUGUAGAUCAGAUUAUCAGAGGCAGGAGCACUCCCGGAUUGGAGCAUACUU: 1.41 ratio
UGUGUCCACAUAUUUGUCCAUUUGUCUGUGUACAAUCAGUCCUGGUGAUCACAUGGACUAUACCGUCCACAUCUCUGUAUCUUGCUGGAAAGAACCCAAAGGAGCAUCGUAUGGACACUU: 0.249 ratio
UCCCUCGCCUGUGGUAAACCAACACAGCGGGUCCUCACAAAAGAACCCAAGUCCAAGGAGACCGAAAGUGGCCACAUAUUUACAGUUAAUGAUCAAUUCACAUCUAAACUACACAGAGUC: 0.153 ratio
CCUCCUUUUGCAACUGGACUGCCUCACUAUGGACAUAUACUUGCGGGUACAAUUAAAGAUACCGUUACAAGAUAUGCUCACCAGAGUGGGUUUCAUGUUGACAGAAGAUUUGGAUGGGAU: 0.102 ratio
